Results pooled from the literature.
Each line is one published result; not all experiments were run side by side. Numbers after ± are the reported error.
UniProt Q12809, sequence (whole entry, looked up): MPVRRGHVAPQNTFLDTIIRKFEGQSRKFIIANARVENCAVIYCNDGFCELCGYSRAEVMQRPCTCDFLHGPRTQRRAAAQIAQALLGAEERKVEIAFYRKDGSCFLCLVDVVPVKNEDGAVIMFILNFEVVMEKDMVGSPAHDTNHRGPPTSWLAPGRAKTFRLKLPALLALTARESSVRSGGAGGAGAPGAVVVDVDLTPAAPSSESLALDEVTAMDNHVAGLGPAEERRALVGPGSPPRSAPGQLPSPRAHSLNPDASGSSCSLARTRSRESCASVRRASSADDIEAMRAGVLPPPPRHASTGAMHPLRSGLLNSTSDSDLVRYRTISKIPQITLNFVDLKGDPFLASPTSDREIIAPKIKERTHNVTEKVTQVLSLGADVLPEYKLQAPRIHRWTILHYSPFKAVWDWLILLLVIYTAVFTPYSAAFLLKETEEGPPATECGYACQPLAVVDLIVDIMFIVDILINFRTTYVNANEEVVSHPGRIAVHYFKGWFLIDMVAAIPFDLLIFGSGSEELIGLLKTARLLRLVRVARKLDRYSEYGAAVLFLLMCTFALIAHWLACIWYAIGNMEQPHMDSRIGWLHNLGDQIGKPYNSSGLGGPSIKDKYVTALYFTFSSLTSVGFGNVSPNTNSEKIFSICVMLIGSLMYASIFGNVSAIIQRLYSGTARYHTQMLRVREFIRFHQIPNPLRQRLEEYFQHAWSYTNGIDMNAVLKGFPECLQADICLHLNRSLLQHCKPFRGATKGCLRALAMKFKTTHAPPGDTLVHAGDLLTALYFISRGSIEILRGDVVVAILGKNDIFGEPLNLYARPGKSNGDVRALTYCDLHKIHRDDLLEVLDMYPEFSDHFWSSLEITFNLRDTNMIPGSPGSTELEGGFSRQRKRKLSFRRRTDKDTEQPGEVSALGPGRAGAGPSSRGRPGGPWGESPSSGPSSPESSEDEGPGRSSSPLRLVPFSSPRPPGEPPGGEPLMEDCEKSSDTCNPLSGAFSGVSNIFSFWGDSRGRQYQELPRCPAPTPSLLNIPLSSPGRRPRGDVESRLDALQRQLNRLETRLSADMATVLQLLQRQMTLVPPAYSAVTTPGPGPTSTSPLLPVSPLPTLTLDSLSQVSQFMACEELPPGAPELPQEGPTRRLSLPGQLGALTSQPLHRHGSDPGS
UniProt Q9Y6L6, sequence (whole entry, looked up): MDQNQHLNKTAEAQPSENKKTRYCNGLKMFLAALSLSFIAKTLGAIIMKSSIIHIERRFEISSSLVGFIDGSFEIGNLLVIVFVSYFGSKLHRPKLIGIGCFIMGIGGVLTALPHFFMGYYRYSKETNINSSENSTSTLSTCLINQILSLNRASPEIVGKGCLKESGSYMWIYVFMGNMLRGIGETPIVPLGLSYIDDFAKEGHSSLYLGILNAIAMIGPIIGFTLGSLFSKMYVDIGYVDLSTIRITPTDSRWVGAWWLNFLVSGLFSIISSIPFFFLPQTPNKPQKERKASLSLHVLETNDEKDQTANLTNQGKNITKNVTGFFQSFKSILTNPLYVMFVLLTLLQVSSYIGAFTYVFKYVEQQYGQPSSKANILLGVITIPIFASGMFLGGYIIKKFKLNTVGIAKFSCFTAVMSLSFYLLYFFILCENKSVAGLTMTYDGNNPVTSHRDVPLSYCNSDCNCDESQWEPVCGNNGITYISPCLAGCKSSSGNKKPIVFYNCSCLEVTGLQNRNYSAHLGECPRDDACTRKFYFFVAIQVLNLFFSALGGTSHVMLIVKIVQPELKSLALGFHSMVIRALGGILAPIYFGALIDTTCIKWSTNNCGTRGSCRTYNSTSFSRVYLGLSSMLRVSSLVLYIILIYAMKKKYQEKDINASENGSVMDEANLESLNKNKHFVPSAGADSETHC
UniProt P10635, sequence (whole entry, looked up): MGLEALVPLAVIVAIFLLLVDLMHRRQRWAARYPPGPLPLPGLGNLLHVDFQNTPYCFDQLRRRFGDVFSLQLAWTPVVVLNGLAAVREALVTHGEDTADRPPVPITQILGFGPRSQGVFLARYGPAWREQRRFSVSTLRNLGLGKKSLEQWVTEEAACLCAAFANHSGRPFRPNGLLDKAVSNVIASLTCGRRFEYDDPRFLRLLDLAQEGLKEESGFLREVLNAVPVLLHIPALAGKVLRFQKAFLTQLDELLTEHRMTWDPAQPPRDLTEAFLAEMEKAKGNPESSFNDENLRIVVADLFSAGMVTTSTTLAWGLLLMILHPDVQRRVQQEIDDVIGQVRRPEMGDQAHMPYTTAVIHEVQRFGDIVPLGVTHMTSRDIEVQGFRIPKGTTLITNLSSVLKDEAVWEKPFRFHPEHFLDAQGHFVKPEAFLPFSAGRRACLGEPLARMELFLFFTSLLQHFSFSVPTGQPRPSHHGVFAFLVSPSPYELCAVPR

`CCC(=O)N(C)c1ccc(Cl)c(Cl)c1` gave a revertants of 0 revertants/plate (Salmonella typhimurium; Ames test; TA1535; 5.00 mg/plate, without S9 activation).
For `CN[C@](C)(C[18F])C(=O)O`, the tracer uptake was 2.2 %ID/g (DU-145 tumour model; host not given, heart; 1 h, tumour-bearing).
`O=C(O)CCC(NP(=O)(O)OCCC[C@@H](NC(=O)CCC(NC(=O)CCCCCNC(=O)c1ccc([18F])cc1)C(=O)O)C(=O)O)C(=O)O` (stereo partly drawn) gave a tracer uptake of 0.28 %ID/g (PC-3 tumour model; host not given, liver; intravenous, 2 h, tumour-bearing).
For `CN(C)CC1CCCCC1(O)c1cccc(O)c1` (stereo not drawn), “Papp B to A” read 15 ± 0.3 ×10⁻⁶ cm/s (P-glycoprotein; Caco-2 TC7; 10 µM, 3 h, pH 7.4, added: cyclosporin A 10 µM).
For `CC[C@H](C)[C@H](NC(=O)[C@@H](NC(=O)[C@H](CCCCN)NC(=O)[C@H](CC(=O)O)NC(=O)[C@H](CCCCN)NC(=O)[C@H](Cc1ccccc1)NC(=O)[C@H](Cc1ccccc1)NC(=O)[C@H](CO)NC(=O)[C@H](CCCCN)NC(=O)[C@H](CCSC)NC(=O)[C@H](CCCCN)NC(=O)[C@H](CCCCN)NC(=O)[C@H](Cc1c[nH]c2ccccc12)NC(=O)[C@@H](N)Cc1ccccc1)C(C)C)C(=O)N1CCC[C@H]1C(=O)N[C@@H](CCCCN)C(=O)N[C@H](C(=O)N[C@@H](CCC(N)=O)C(=O)N[C@@H](CCC(N)=O)C(=O)N[C@@H](C)C(=O)N[C@@H](Cc1ccc(O)cc1)C(=O)N[C@@H](CO)C(=O)N[C@@H](CC(C)C)C(=O)N[C@@H](Cc1ccc(O)cc1)C(=O)N[C@@H](CC(N)=O)C(=O)N[C@@H](CCCCN)C(=O)N[C@@H](CC(C)C)C(=O)N[C@@H](CCC(N)=O)C(=O)N[C@@H](Cc1c[nH]cn1)C(=O)N[C@@H](CCCCN)C(=O)N[C@@H](CC(C)C)C(N)=O)C(C)C`, viability read “no effect” (HEK293T; WST-8; up to 25 µg/mL, 24 h; baseline: water).
The CL/F of `C[C@@](O)(C(F)F)[C@H](NC(=O)c1ccc(C#CC#CC2CC2)cc1)C(=O)NO` is reported as 51 mL/min/kg (dog, plasma; oral, 50 mg/kg).
With `CCN(CC)Cc1cc(Nc2c(C)cnc3cc(Cl)ccc23)ccc1O` the CC50 was 44.6 ± 2.98 µM (BHK-21 DENV2 replicon cells; 24 h).
`O=C(O)CCC(NP(=O)(O)OCCC[C@@H](NC(=O)CCC(NC(=O)c1ccc([18F])cc1)C(=O)O)C(=O)O)C(=O)O` (stereo partly drawn) gave a tracer uptake of 0.65 %ID/g (CWR22Rv1 tumour model; host not given, lung; intravenous, 1 h, tumour-bearing).
`O=C(O)CC1C2CCCN3CCCC(CN1CCc1cc(Cl)cc(Cl)c1)C23` (stereo not drawn) has a CC50 of 83.3 µM (HEK293T).
For `CC[C@H](C)[C@@H]1NC(=O)[C@H](CCCCN)NC(=O)[C@H](CCCCN)NC(=O)[C@H](C)NC(=O)[C@H](C(C)C)NC(=O)[C@H](C)NC(=O)[C@H](CC(C)C)NC(=O)[C@H](CC(C)C)NC(=O)[C@H](C)NC(=O)[C@H](CCCCN)NC(=O)[C@H](CC(C)C)NC(=O)[C@H](CC(N)=O)NC(=O)[C@H](CC(C)C)NC(=O)[C@@H](N)CSSC[C@@H](C(N)=O)NC(=O)[C@H](CC(C)C)NC1=O`, the α-helix content was 28% (circular dichroism; 10 mM ammonium acetate; 100 µM, 20 °C).
For `Nc1nc2c([C@@H]3O[C@@H]4COP(=O)(O)O[C@H]5[C@@H](O)[C@H](c6snc7c(=O)[nH]c(N)nc67)O[C@@H]5COP(=O)(O)O[C@H]4[C@H]3O)snc2c(=O)[nH]1`, “relative emission quantum yield” read 16% (baseline: parent monomeric nucleoside).
`O=C1C(Cl)=C(Cl)C(=O)c2ccccc21` has a CC50 of 36.7 µM (CRFK; cell growth or viability, ATP luminescence; 72 h).
`COc1cc(C(=O)NCCOCCOCCOCCNC(=O)c2ccc([18F])nc2)ccc1NC(=O)C1NC(CC(C)(C)C)C(C#N)(c2ccc(Cl)cc2F)C1c1cccc(Cl)c1F` (stereo not drawn) gave a tracer uptake of 1.73 %ID/g (SJSA-1 tumour model; host not given, kidney; 2 h, tumour-bearing).
For `CC(CCC(=O)NCC(=O)O)C1CCC2C3CCC4CC(OC5OC(C(=O)O)C(O)C(O)C5O)CCC4(C)C3CC(O)C12C` (stereo not drawn), the uptake ratio was no less than 6 (SLCO1B1 (Homo sapiens, UniProt Q9Y6L6); substrate; baseline: OATP1B1 over OATP1B3 or OATP2B1).
`COc1ccc(CNc2nc(N3CCC[C@H]3CO)ncc2C(=O)NNC(=O)c2cnc(N3CCC[C@H]3CO)nc2NCc2ccc(OC)c(Cl)c2)cc1Cl` gave a revertant count of 177 ± 9 (Salmonella typhimurium; TA97a; 62.5 µg/plate, 48 h, added: rat liver S9).
`O=C(O)CCC(NP(=O)(O)OCCC[C@@H](NC(=O)CCC(NC(=O)CCCCCNC(=O)CCCCCNC(=O)c1ccc([18F])cc1)C(=O)O)C(=O)O)C(=O)O` (stereo partly drawn) has a tracer uptake of 0.25 %ID/g (PC-3 tumour model; host not given, liver; intravenous, 2 h, tumour-bearing).
With `CC[C@H](C)[C@H](NC(=O)[C@H](CC(=O)O)NC(=O)[C@@H](NC(=O)[C@@H]1CCCN1C(=O)[C@@H](N)CCCNC(=N)N)[C@@H](C)O)C(=O)N[C@@H](CCCCN)C(=O)N[C@H]1CSSC[C@@H]2NC(=O)[C@H](CCCNC(=N)N)NC(=O)CNC(=O)[C@H](CC(N)=O)NC(=O)[C@H]([C@@H](C)O)NC(=O)[C@H](CCCCN)NC(=O)CNC(=O)[C@H](Cc3ccccc3)NC(=O)[C@H](CCCNC(=N)N)NC(=O)[C@H](CO)NC(=O)[C@H](CCCCN)NC(=O)[C@@H]3CSSC[C@@H](C(=O)N[C@@H](Cc4ccccc4)C(=O)O)NC(=O)[C@H](CC(=O)O)NC(=O)[C@H](CSSC[C@H](NC(=O)[C@H](CCC(N)=O)NC(=O)[C@H](Cc4ccc(O)cc4)NC(=O)[C@H](CO)NC(=O)[C@H](CCC(=O)O)NC(=O)[C@H](CO)NC1=O)C(=O)N[C@@H](Cc1ccccc1)C(=O)N1CCC[C@H]1C(=O)N[C@@H](C(C)C)C(=O)N3)NC(=O)[C@H](Cc1ccccc1)NC(=O)CNC(=O)[C@H](CC(N)=O)NC(=O)[C@H](C(C)C)NC2=O` the Hill coefficient was 0.9 ± 0.1 (KCNH2 (Homo sapiens, UniProt Q12809); ion current, two-electrode voltage clamp; Xenopus laevis oocytes).
For `CC[C@H](C)C(=O)N1CCC(NC(=O)Nc2ccc(OC(F)(F)F)c(F)c2)CC1`, the Cmax was 301 ng/mL (human, plasma; oral, 24 mg, single dose, healthy volunteers).
For `N[C@]1(c2ccccc2Cl)CCC[C@H](O)C1=O`, the AUC(0-t) was 29000 ± 6160 ng·h/mL (Wistar rat, plasma; intravenous, 20 mg/kg).
`C=CC(=O)Nc1cc(Nc2nccc(-c3cn(C)c4ccccc34)n2)c(OCC(F)(F)F)nc1N(C)CCN(C)C` has a remaining activity of 102% (Cytochrome P450 2D6 (CYP2D6, Homo sapiens, UniProt P10635); dextromethorphan O-demethylation, inhibitor; human liver microsomes; 1 µM).
The revertant count of `COc1ccc(CNc2nc(N3CCC[C@H]3CO)ncc2C(=O)NN)cc1Cl` is reported as 194 ± 16 (Salmonella typhimurium; TA97a; 62.5 µg/plate, 48 h, added: rat liver S9).
The CC50 of `COC(=O)CCCC1C2CCCN3CCCC(CN1C(=O)c1ccc(Cl)cc1)C23` (stereo not drawn) is reported as greater than 200 µM (HEK293T).
With `N#Cc1ccc(-c2ccc(-c3cccs3)o2)cc1` the revertant colonies was 24.7 ± 2.5 colonies/plate (Salmonella typhimurium; mutagenicity, Ames test; TA1535; 10 or 20 µM, 48 h, pH 7.4, higher tested concentration, added: rat liver S9 mix).
For `Cc1nc(=O)c2cc(CN(C)c3ccc(C(=O)NCc4cccc(C(=O)O)c4)s3)ccc2[nH]1`, “metabolized share of uptake” read 86% (Mycobacterium tuberculosis; H37Rv; 10 µM, 24 h).

Some of these lines once more:
`O=C(O)CCC(NP(=O)(O)OCCC[C@@H](NC(=O)CCC(NC(=O)CCCCCNC(=O)CCCCCNC(=O)c1ccc([18F])cc1)C(=O)O)C(=O)O)C(=O)O` (stereo partly drawn) has a tracer uptake of 0.25 %ID/g (PC-3 tumour model; host not given, liver; intravenous, 2 h, tumour-bearing).
`C=CC(=O)Nc1cc(Nc2nccc(-c3cn(C)c4ccccc34)n2)c(OCC(F)(F)F)nc1N(C)CCN(C)C` has a remaining activity of 102% (Cytochrome P450 2D6 (CYP2D6, Homo sapiens, UniProt P10635); dextromethorphan O-demethylation, inhibitor; human liver microsomes; 1 µM).
